Assay results of several laboratories.
Numbers after ± are the reported error.
Polyprotein P1234 nsP2 protease domain: Polyprotein P1234, nsP2 protease domain (Chikungunya virus, UniProt Q8JUX6)
B1: FADD death domain 93-192; chain GEEDLCAAFNVICDNVGKDWRRLARQLKVSDTKIDSIEDRYPRNLTERVRESLRIWKNTEKENATVAHLVGALRSCQMNLVADLVQEVQQARDLQNRSGA
Chain of UniProt P06400 (whole entry, unmodified, looked up): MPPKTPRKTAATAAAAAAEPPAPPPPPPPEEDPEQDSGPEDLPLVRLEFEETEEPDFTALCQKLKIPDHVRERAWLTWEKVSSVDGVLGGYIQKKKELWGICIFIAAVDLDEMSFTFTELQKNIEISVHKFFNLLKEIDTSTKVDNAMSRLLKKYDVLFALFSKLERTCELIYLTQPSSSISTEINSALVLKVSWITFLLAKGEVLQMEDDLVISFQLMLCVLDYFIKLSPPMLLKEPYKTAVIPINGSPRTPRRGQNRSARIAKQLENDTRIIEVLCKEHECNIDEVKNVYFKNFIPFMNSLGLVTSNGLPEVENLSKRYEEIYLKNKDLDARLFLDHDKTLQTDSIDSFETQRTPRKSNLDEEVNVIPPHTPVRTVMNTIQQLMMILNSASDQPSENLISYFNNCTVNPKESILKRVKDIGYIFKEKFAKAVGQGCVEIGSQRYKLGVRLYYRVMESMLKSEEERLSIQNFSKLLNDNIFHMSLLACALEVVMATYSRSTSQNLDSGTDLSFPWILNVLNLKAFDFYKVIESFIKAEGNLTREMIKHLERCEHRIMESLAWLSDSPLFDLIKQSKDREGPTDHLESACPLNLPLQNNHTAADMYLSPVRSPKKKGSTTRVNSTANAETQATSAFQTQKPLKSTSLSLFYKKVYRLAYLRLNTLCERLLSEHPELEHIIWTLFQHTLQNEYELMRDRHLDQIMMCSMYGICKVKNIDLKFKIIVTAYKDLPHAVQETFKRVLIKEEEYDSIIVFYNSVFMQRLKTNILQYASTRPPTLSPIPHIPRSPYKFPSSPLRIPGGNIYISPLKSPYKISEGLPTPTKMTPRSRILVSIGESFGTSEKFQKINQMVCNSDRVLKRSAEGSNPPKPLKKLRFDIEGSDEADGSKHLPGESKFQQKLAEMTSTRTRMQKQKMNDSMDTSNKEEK

`COc1ncc(-c2cn([C@@H]3O[C@](F)(COC(=O)C(C)C)[C@@H](OC(=O)C(C)C)[C@H]3OC(=O)C(C)C)cn2)cn1` has an IC50 of over 100 µM (Zaire ebolavirus; viral replication, reporter virus; Huh-7; 72 h).
`O=C(NCC(F)(F)F)c1ccc(CN(Cc2cc(Cl)cc3c2OCOC3)C2CC2)cc1` has an inhibition of 47% (MERS-CoV spike VSV pseudovirus; pseudovirus entry; 10 µM).
`inositol hexakisphosphate` gave an EC50 of 0.18 ± 0.02 µM (Toxin B (tcdB, Clostridioides difficile, UniProt P18177); toxin autoprocessing, activator).
With `FTMSPPLQMPSKNY` the enrichment score was 287 (Polyprotein P1234 nsP2 protease domain; binding, phage display; peptide; direction not given).
`COc1ncc(-c2cn([C@@H]3O[C@](F)(CO[P@@](=O)(N[C@@H](C)C(=O)OC(C)C)Oc4ccccc4)[C@@H](OC(=O)C(C)C)[C@H]3OC(=O)C(C)C)cn2)cn1` gave an IC50 of 19.6 µM (Zaire ebolavirus; viral replication, reporter virus; Huh-7; 72 h).
`MEASGVNYQNMNKQTT` has an enrichment score of 34 (Polyprotein P1234 nsP2 protease domain; binding, phage display; peptide; direction not given).
`B1 (FADD death domain 93-192)` has a Kd of 94.4 ± 21.9 µM (sseK2 34-348 N302Y (Salmonella enterica, UniProt Q8ZNP4); ITC; together with: UDP).
Under binding, `GGUGUAAAUUGUCCUUUUUGUAACUUUAAUUCCUUGUACUUAAUAUCAUUUAUUGAAUUUACUGCUCUAGAUAAAGUACCUACUUCUCUUAAUAUAUUACUAUCUAAAGUCUUAAUCAAACACACCUCCACUGAAACUACCAUGGCUAAAGUCAAAUAGUUUCUGUUUUAUAGAAUUUCACAUAAUCAAUAUUUUCAUUUUUAGUUGAAAGUUCAACUUUUUUAAAUUUUACCAU (structured RNA)` is recorded as “binds” (CD25890 1-293 E254A/E258A (Clostridioides difficile, UniProt Q182S9); EMSA).
For `E1A Motif-linker-motif domain (bat adenovirus)`, the relative KD was 1.5 (RB1 AB domain 372-787 del582-642 (Homo sapiens, UniProt P06400); E2F displacement, fluorescence polarisation; relative to: wild-type E1A, higher = weaker binding).

A few entries again:
For `E1A Motif-linker-motif domain (bat adenovirus)`, the relative KD was 1.5 (RB1 AB domain 372-787 del582-642 (Homo sapiens, UniProt P06400); E2F displacement, fluorescence polarisation; relative to: wild-type E1A, higher = weaker binding).
